Measured values gathered from unrelated publications.
± gives the spread as reported.

With COC(=O)[C@H]1[C@H]2C[C@H]3O[C@@]4(CCN3C[C@H]2C[C@@H](OC(=O)c2cc(OC)c(OC)c(OC)c2)[C@@H]1OC)C(=O)Nc1cc(OC)c(-c2ccc(C(F)(F)F)cc2)cc14 the IC50 was 1.73 µM (SU-DHL-4; cell growth or viability, trypan blue; 72 h).
The IC50 of Cc1cc(C)c(-n2c3c([n+](-c4c(C)cc(C)cc4C)[c]2[Cu-][Cl])-c2cccc4cccc-3c24)c(C)c1 is reported as 4 µM (PSN1; cell growth or viability, MTT; 72 h).
With CC1(C)Cc2c(-c3ccccc3)c(-c3ccc(Cl)cc3)c(CC(=O)NCC(=O)O)n2C1 the IC50 was 0.78 µM (mouse Peritoneal macrophage; PGE2 release, inhibitor; LPS-stimulated).
COC(C)(C)C(O)COc1c2ccoc2cc2oc(=O)ccc12 (centres unmarked) gave an IC50 of 35.9 µM (L5178Y; cell growth or viability, MTT; 72 h).
For CN1CCCNC(=O)CCC(=O)NCCCN(C)CCCNc2cccc3c2C(=O)c2cccc(c2C3=O)NCCC1, the IC50 was over 20 µM (HSC-2; cell growth or viability, CCK-8; 48 h).
The IC50 of C=CC(=O)N1CCCC(n2c(=O)c3ncccc3n(Cc3ccc(Oc4ccccc4)cc3)c2=O)C1 (centres unmarked) is reported as 0.5 µM (VL51; cell growth or viability, MTT; 72 h).
CC1CCc2c(c(-c3c[nH]nc3C(F)(F)F)nc3ccc4[nH]ncc4c23)C1 (centres unmarked) gave an IC50 of 0.0207 µM (Molm13 resistant FLT3-ITD D835Y; cell growth; 72 h).
For CC[C@H](C)[C@H](N)C(=O)Nc1ccc2nc(Cc3c[nH]c4ccccc34)[nH]c2c1, the IC50 was 14.3 ± 2.7 µM (HCT-15 (KRAS G13D); cell viability, CellTiter-Glo; 72 h).
With CC(C)c1cccc(C(C)C)c1-n1ccn(-c2c(C(C)C)cccc2C(C)C)c1=[Se].[Cl][Au] the IC50 was 2.1 ± 0.4 µM (LoVo-OXP (oxaliplatin-resistant); MTT; 72 h).
O=c1ccn([C@@H]2O[C@H](CSSc3ccccn3)[C@@H](O)[C@H](F)[C@H]2O)c(=O)[nH]1 has an IC50 of 9.5 µM (L1210; cell growth or viability).
The IC50 of COc1cc(-c2nc3ccc(C(=O)NCCCN4CCN(c5ccccn5)CC4)cc3n2C2CCC2)cc(OC)c1OC is reported as 1.09 µM (293 T-BRE-Luc; reporter gene, inhibitor; 6 h, together with: BMP7-induced BMP7 500 ng/mL).
With C=CCc1ccc(OCc2nnc(SCC(=O)Nc3ccc(Br)cc3)o2)c(OC)c1 the IC50 was at most 10 µM (MCF7, SK-OV-3, PC-3; cell growth, MTT).
For O=C(Cc1ccc2ccccc2c1)N[C@H](Cc1ccccc1)C(=O)N[C@H](Cc1ccc(OP(=O)(O)O)cc1)C(=O)N[C@H](Cc1ccccc1)C(=O)N[C@H](Cc1ccc(OP(=O)(O)O)cc1)C(=O)O, the IC50 was 144 µg/mL (SAOS-2; cell growth or viability, MTT).
The IC50 of CC1(N)CCN(c2nc(N(Cc3ccccc3)Cc3ccccc3)nc3c2ncn3Cc2ccccc2)CC1 is reported as 2.9 ± 0.3 µM (SNU1197 (KRAS G12D); cell viability, WST; 72 h).
For CCCC(CCC)C(=O)[O][Pt]([NH2])([NH2])([Cl])([Cl])[O]C(=O)c1ccccc1OC(C)=O, the IC50 was 0.13 µM (PSN1; cell growth or viability, MTT; 72 h).
For c1ccc(-n2c(-c3cccs3)nc3c4ccccc4c4ccccc4c32)cc1, the IC50 was over 1000 µg/mL (human foreskin fibroblasts HFF; cell viability, colorimetric; 72 h).
CCC(CC)c1nc(-c2ccc(O)cc2O)cs1 has an IC50 of 14.4 µM (patient-derived fibroblasts; cell growth, PrestoBlue; 72 h).
Cc1sc2c(c1C)C(c1ccc(Cl)cc1)=N[C@@H](CC(=O)NCCCCCCCCC(=O)N1CCN(C(=O)c3cc(Cc4n[nH]c(=O)c5ccccc45)ccc3F)CC1)c1nnc(C)n1-2 gave an IC50 of 0.015 µM (SU-DHL-5; cell growth or viability, ATP luminescence; 72 h).
The IC50 of CC(C)c1cccc(C(C)C)c1N1CCN(c2c(C(C)C)cccc2C(C)C)C1=[Se].[Cl][Au] is reported as 1.4 µM (PSN1; cell growth or viability, MTT; 72 h).
CC(=O)OC[C@H]1O[C@@H](NC(=O)CCCc2ccc3c(c2)CCCC3)[C@H](OC(C)=O)[C@@H](OC(C)=O)[C@@H]1OC(C)=O has an IC50 of 106 µM (L1210; cell growth or viability; 48 h).
CN(C)/C=C/C(=O)c1ccc2[nH]c3ncc(-c4ccc(N5CCN(C)CC5)cc4)cc3c2c1 has an IC50 of 2.8 µM (parental Ba/F3 (IL-3 dependent); cell proliferation, [3H]-thymidine incorporation).
With CSC[C@@H]1C(=O)O[C@H]2[C@H]1CC/C(C)=C/CC[C@@]1(C)O[C@@H]21 the IC50 was over 50 µM (KG-1a; cell growth or viability, MTT; 72 h).
With CN1CCN(c2ccc(Nc3ncc(Cl)c(Nc4ccccc4P(C)(C)=O)n3)cc2Br)CC1 the IC50 was 0.23 µM (PC-9; cell growth or viability, SRB; 72 h).
With O=C([O][Ti+2][O]C(=O)c1ccc([P+]([Au-][Cl])(c2ccccc2)c2ccccc2)cc1)c1ccc([P+]([Au-][Cl])(c2ccccc2)c2ccccc2)cc1.c1cc[cH-]c1.c1cc[cH-]c1 the IC50 was 1 µM (CAKI-1; cell viability, XTT; 72 h).
CC(=O)OC[C@H]1O[C@@H](NC(=O)NC(=O)[C@@H](C)Cc2ccc(C(C)C)cc2)[C@H](OC(C)=O)[C@@H](OC(C)=O)[C@@H]1OC(C)=O gave an IC50 of 47 µM (L1210; cell growth or viability; 48 h).
With COc1cc(-c2coc3cc(O)cc(O)c3c2=O)ccc1O the IC50 was over 100 µM (MDA-MB-231, Huh-7, KKU100, NHDF cells; cell viability, MTT; 24 h).
C=C1C(=O)O[C@H]2CC3=C[C@@H](C/C(C)=C/[C@@H](OC(=O)/C=C/c4ccccc4)[C@H]12)OC3=O has an IC50 of over 10 µM (normal human melanocytes; viability, MTT; 24 h).
For CCCN(CCC)C(=S)SC[C@@H]1C(=O)O[C@H]2[C@H]1CC/C(C)=C/CC[C@@]1(C)O[C@@H]21, the IC50 was 50 µM (KG-1a; cell growth or viability, MTT; 72 h).
For CC(C)Cc1ccc(C(C)C(=O)[O][Pt]([NH2])([NH2])([Cl])([Cl])[O]C(=O)C(Cl)Cl)cc1 (centres unmarked), the IC50 was 0.08 µM (PSN1; cell growth or viability, MTT; 72 h).
Cc1nc(Nc2ncc(C(=O)Nc3c(C)cccc3Cl)s2)cc(N2CCN(CCOC(=O)CCCCCCCCCCN)CC2)n1 gave an IC50 of under 5.12e-05 µM (BV-173; cell growth or viability, MTT; 72 h).
For Cc1cc(C)c(N[C](NCc2ccc(N[C](Nc3c(C(C)C)cccc3C(C)C)=[Pt-]([Cl])([Cl])[C]#[N+]c3c(C(C)C)cccc3C(C)C)cc2)=[Au][Cl])c(C)c1, the IC50 was over 100 µM (OVCAR-3; cell growth or viability).
For FC(F)(F)c1n[nH]cc1-c1nc2ccc3[nH]ncc3c2c2c1CC2, the IC50 was 1.53 µM (MV4-11; cell growth or viability, resazurin; 72 h).
For Cc1cc(C)c(N[C](NCc2cccc(N[C](Nc3c(C(C)C)cccc3C(C)C)=[Pt-]([Cl])([Cl])[C]#[N+]c3c(C(C)C)cccc3C(C)C)c2)=[Au][Cl])c(C)c1, the IC50 was over 100 µM (OVCAR-3; cell growth or viability).
For Cc1c(C)n(-c2c(C(C)C)cccc2C(C)C)c(=[Se])n1-c1c(C(C)C)cccc1C(C)C.[Cl][Ag], the IC50 was 0.3 ± 0.02 µM (A2780 ADR; MTT; 72 h).
The IC50 of Cc1cc(C)c(N[C](NCc2ccc(N[C](Nc3c(C(C)C)cccc3C(C)C)=[Pd-]([Cl])([Cl])[C]#[N+]c3c(C(C)C)cccc3C(C)C)cc2)=[Au][Cl])c(C)c1 is reported as 40 µM (OVCAR-3; cell growth or viability).
Cn1cnc(Cn2ccc3ccc(CNCc4[nH]c5ccccc5c4C4NC(=O)c5ccc(O)cc54)cc32)c1 (centres unmarked) gave an IC50 of over 30 µM (HCT-15 (KRAS G13D); cell viability, CellTiter-Glo; 72 h).
For CCC(C(=O)O)C1CCC(C)C(C(C)C(O)C(C)C(=O)C(CC)C2OC3(C=CC(NCc4cn(CCCCSC(C)=O)nn4)C4(CCC(C)(C5CCC(O)(CC)C(C)O5)O4)O3)C(C)CC2C)O1 (centres unmarked), the IC50 was 0.46 ± 0.03 µM (HMLER CD24low/CD44high; cell proliferation; 72 h).
With CC(C)c1cccc(C(C)C)c1-n1c(Cl)c(Cl)n(-c2c(C(C)C)cccc2C(C)C)c1=[Se].[Cl][Au] the IC50 was 8.7 ± 1.1 µM (H157 spheroids; acid phosphatase; 72 h, 3D spheroid).
For COc1cc(-c2cc(=O)c3c(O)cc(OC4OC(COC5OC(C)C(O)C(O)C5O)C(O)C(O)C4O)cc3o2)ccc1O (centres unmarked), the IC50 was over 100 µM (MDA-MB-231-pcDNA breast cancer; cytotoxicity, resazurin reduction; 72 h).
For [Cl][Au].[Se]=c1n(C23CC4CC(CC(C4)C2)C3)ccn1C12CC3CC(CC(C3)C1)C2, the IC50 was 5.8 ± 0.7 µM (H157 spheroids; acid phosphatase; 72 h, 3D spheroid).
CC(=O)OC[C@H]1O[C@@H](NC(=O)/C=C/c2ccc(C(C)C)cc2)[C@H](OC(C)=O)[C@@H](OC(C)=O)[C@@H]1OC(C)=O has an IC50 of 110 µM (L1210; cell growth or viability; 48 h).

A few entries again:
With COC(=O)[C@H]1[C@H]2C[C@H]3O[C@@]4(CCN3C[C@H]2C[C@@H](OC(=O)c2cc(OC)c(OC)c(OC)c2)[C@@H]1OC)C(=O)Nc1cc(OC)c(-c2ccc(C(F)(F)F)cc2)cc14 the IC50 was 1.73 µM (SU-DHL-4; cell growth or viability, trypan blue; 72 h).
O=c1ccn([C@@H]2O[C@H](CSSc3ccccn3)[C@@H](O)[C@H](F)[C@H]2O)c(=O)[nH]1 has an IC50 of 9.5 µM (L1210; cell growth or viability).
For CCCN(CCC)C(=S)SC[C@@H]1C(=O)O[C@H]2[C@H]1CC/C(C)=C/CC[C@@]1(C)O[C@@H]21, the IC50 was 50 µM (KG-1a; cell growth or viability, MTT; 72 h).
